Measured values of several laboratories.
Each line is one published result; not all experiments were run side by side. “And” joins repeats or separate records; there may be more than shown. Numbers after ± are the reported error.

Structure (SMILES)	cell line	observed	technique	medium	time	notes	IC50
O=c1n(CCNCCOS(=O)(=O)c2ccccc2)c(=O)n(S(=O)(=O)c2ccccc2)c(=O)n1S(=O)(=O)c1ccccc1	A549	cell growth or viability	MTT		48 h		9.14 µg/mL
CC(C)NCCCn1c(Sc2cc3c(cc2I)OCO3)nc2c(N)ncnc21	MDA-MB-468	cell death	annexin V, cleaved PARP				0.1 µM
O=C(Cc1ccc(Br)cc1)N1CCN(CC(OCc2ccc3ccccc3c2)c2ccc(Cl)cc2Cl)CC1 (centres unmarked)	MDA-MB-468	cell growth or viability	MTT		24 h		19.7 µM
CCC1=C(C)C2=C(c3ccc(C(=O)NCCNC(=O)c4ccc(P(=NC5=[O+][Ru-]([Cl])[n+]6ccccc65)(c5ccccc5)c5ccccc5)cc4)cc3)c3c(C)c(CC)c(C)n3[B-](F)(F)[N+]2=C1C.Cc1ccc(C(C)C)cc1.Cl	MCF-10A	cell growth or viability	MTT				73 µM
CC(=O)N[C@H](C(=O)N[C@@H](CCCNC(=N)N)C(=O)N[C@@H](CCCCN)C(=O)N[C@@H](CCCNC(=N)N)C(=O)N[C@H](C(=O)N[C@@]1(C)CCCC=CCCC[C@@](C)(C(=O)N[C@@H](CCC(N)=O)C(=O)N[C@@H](CCC(=O)O)C(=O)N[C@@H](CCCNC(=N)N)C(=O)N[C@@H](CCC(=O)O)C(=O)N[C@@H](CC(C)C)C(=O)N[C@H](C(=O)N[C@@H](CCC(=O)O)C(N)=O)C(C)C)NC(=O)[C@H](CC(C)C)NC(=O)[C@H](CCCNC(=N)N)NC(=O)[C@H](CCCNC(=N)N)NC1=O)[C@@H](C)O)C(C)C	H2030 (wild-type EGFR)	cell viability	ATP luminescence		18 h		> 50 µM
COc1ccccc1-c1ccncc1C(=O)Nc1nnc(OCc2ccc(Cl)cc2)s1	DLD-1 BRCA2 knockout	colony survival					~1 µM
CC(=O)N[C@H](C(=O)N[C@@H](CCCNC(=N)N)C(=O)N[C@@H](CCCCN)C(=O)N[C@@H](CCCNC(=N)N)C(=O)N[C@H](C(=O)N[C@@H](CC(C)C)C(=O)N[C@@H](CCCNC(=N)N)C(=O)N[C@]1(C)CCCC=CCCC[C@@](C)(C(=O)N[C@@H](CCC(=O)O)C(=O)N[C@@H](CCCNC(=N)N)C(=O)N[C@@H](CCC(=O)O)C(=O)N[C@@H](CC(C)C)C(=O)N[C@H](C(=O)N[C@@H](CCC(=O)O)C(N)=O)C(C)C)NC(=O)[C@H](CC(C)C)NC(=O)[C@H](CC(C)C)NC1=O)[C@@H](C)O)C(C)C	SK-N-MC (no EGFR or ErbB2-4)	cell viability	ATP luminescence		18 h		> 10 µM
Cc1cc(Oc2nc(N3CC[C@@H](c4ccncc4)C3)ncc2F)[nH]n1	NCI-H292	cell proliferation		lung cancer			47.9 µM
Cc1ccc(C(C)C)cc1.Cc1ccc(C(C)C)cc1.Cc1ccc(C(C)C)cc1.Cc1ccc(C(C)C)cc1.O=S(=O)(O)C(F)(F)F.O=S(=O)(O)C(F)(F)F.O=S(=O)(O)C(F)(F)F.O=S(=O)(O)C(F)(F)F.c1ccc2c3c4ccccc4c(c2c1)-c1cn(nn1)-c1cc[n+](cc1)[Ru-]1[O]c2ccc4c5c(ccc(c25)=[O+]1)=[O+][Ru-]([O]4)[n+]1ccc(cc1)-n1cc(nn1)-c1c2ccccc2c(c2ccccc12)-c1cn(nn1)-c1cc[n+](cc1)[Ru-]1[O]c2ccc4c5c(ccc(c25)=[O+]1)=[O+][Ru-]([O]4)[n+]1ccc(cc1)-n1cc-3nn1	AGS	cell growth or viability	MTT		24 h		2.4 µM
CC(=O)N[C@H](C(=O)N[C@@H](CCCNC(=N)N)C(=O)N[C@@H](CCCCN)C(=O)N[C@@H](CCCNC(=N)N)C(=O)N[C@]1(C)CCCC=CCCC[C@@](C)(C(=O)N[C@@H](CC(C)C)C(=O)N[C@@H](CC(C)C)C(=O)N[C@@H](CCC(N)=O)C(=O)N[C@@H](CCC(=O)O)C(=O)N[C@@H](CCCNC(=N)N)C(=O)N[C@@H](CCC(=O)O)C(=O)N[C@@H](CC(C)C)C(=O)N[C@H](C(=O)N[C@@H](CCC(=O)O)C(N)=O)C(C)C)NC(=O)[C@H](CCCNC(=N)N)NC(=O)[C@H](CC(C)C)NC1=O)C(C)C	SK-N-MC (no EGFR or ErbB2-4)	cell viability	ATP luminescence		18 h		> 100 µM
Cc1cc(Nc2nc(C[C@@]3(C(=O)O)CCN(Cc4cccc(Cl)c4F)[C@H](C)C3)cc(C)c2F)[nH]n1	HCC1143	cell growth or viability	ATP luminescence		5 days		0.0952 µM
CC(C)C12OC1C1OC13C1(C)CCC4=C(COC4=O)C1CC1OC13C2OC(=O)CCCOC1OC(CO)C(O)C(O)C1O (centres unmarked)	human cancer cell lines	cell viability	XTT				3.94 µM
CC(=O)N[C@H](C(=O)N[C@@H](CCCNC(=N)N)C(=O)N[C@@H](CCCCN)C(=O)N[C@@H](CCCNC(=N)N)C(=O)N[C@H](C(=O)N[C@@H](CC(C)C)C(=O)N[C@@H](CCCNC(=N)N)C(=O)N[C@@]1(C)CCCC=CCCC[C@@](C)(C(=O)N[C@@H](CCCNC(=N)N)C(=O)N[C@@H](CCC(=O)O)C(=O)N[C@@H](CC(C)C)C(=O)N[C@H](C(=O)N[C@@H](CCC(=O)O)C(N)=O)C(C)C)NC(=O)[C@H](CCC(N)=O)NC(=O)[C@H](CC(C)C)NC(=O)[C@H](CC(C)C)NC1=O)[C@@H](C)O)C(C)C	H2030, wild-type EGFR						2.39 µM and 4.47 µM
CC(=O)N[C@H](C(=O)N[C@@H](CCCNC(=N)N)C(=O)N[C@@H](CCCCN)C(=O)N[C@@H](CCCNC(=N)N)C(=O)N[C@@]1(C)CCCC=CCCC[C@@](C)(C(=O)N[C@@H](CC(C)C)C(=O)N[C@@H](CCC(N)=O)C(=O)N[C@@H](CCC(=O)O)C(=O)N[C@@H](CCCNC(=N)N)C(=O)N[C@@H](CCC(=O)O)C(=O)N[C@@H](CC(C)C)C(=O)N[C@H](C(=O)N[C@@H](CCC(=O)O)C(N)=O)C(C)C)NC(=O)[C@H](CCCNC(=N)N)NC(=O)[C@H](CCCNC(=N)N)NC(=O)[C@H](CC(C)C)NC1=O)C(C)C	SK-N-MC (no EGFR or ErbB2-4)	cell viability	ATP luminescence		18 h		~80 µM
CC[C@H](C)[C@@H]1NC(=O)[C@@H]2CCCN2C(=O)[C@H](C)NC(=O)[C@H](CC(C)C)NC(=O)[C@@H]2CCCN2C(=O)[C@H](C)NC(=O)[C@@H]2CSSC[C@H](NC(=O)[C@H](C)NC(=O)[C@H](C)NC(=O)[C@H](Cc3ccc(O)cc3)NC(=O)[C@@H]3CCCN3C(=O)CNC(=O)[C@H](Cc3c[nH]c4ccccc34)NC1=O)C(=O)N[C@@H](CC(C)C)C(=O)N[C@@H](CO)C(=O)N[C@@H](C)C(=O)N[C@H]1CSSC[C@H](NC(=O)[C@H](C(C)C)NC(=O)[C@@H]3CCCN3C(=O)CNC(=O)CNC(=O)CNC(=O)[C@H](C)NC(=O)[C@H](C)NC(=O)[C@H](CC(C)C)NC1=O)C(=O)N[C@@H](CC(C)C)C(=O)N[C@@H](C)C(=O)N[C@@H](C(C)C)C(=O)N2	U-251						> 128 µg/mL
Cc1cc(C)cc(COc2cc3c(cc2OCc2cc(C)cc(C)c2)C2CC(O)(Cc4cn(CCOCCOCCOCCOc5cccc6c5C(=O)N(C5CCC(=O)NC5=O)C6=O)nn4)CC(C)N2CC3)c1 (racemic)	ASPC1	cell growth or viability	MTT				1.96 µM
[CH3][Ti+2][O]C(=O)c1ccc([S][Au][PH](c2ccccc2)(c2ccccc2)c2ccccc2)cc1.c1cc[cH-]c1.c1cc[cH-]c1	renal proximal tubule cells	cytotoxicity	XTT		24 h		3.88 ± 0.86 µM
CC(=O)N[C@H](C(=O)N[C@@H](CCCNC(=N)N)C(=O)N[C@@H](CCCCN)C(=O)N[C@@H](CCCNC(=N)N)C(=O)N[C@]1(C)CCCCCCC=CCCC[C@@](C)(C(=O)N[C@@H](CCCNC(=N)N)C(=O)N[C@@H](CCC(=O)O)C(=O)N[C@@H](CC(C)C)C(=O)N[C@H](C(=O)N[C@@H](CCC(=O)O)C(N)=O)C(C)C)NC(=O)[C@H](CCC(N)=O)NC(=O)[C@H](CC(C)C)NC(=O)[C@H](CC(C)C)NC(=O)[C@H](CCCNC(=N)N)NC(=O)[C@H](CCCNC(=N)N)NC(=O)[C@H](CC(C)C)NC1=O)C(C)C	H1975 (EGFR L858R/T790M)	cell viability			18 h	serum-free	2.24 µM
CC1CCC2C(C)C(OC(=O)CCC(=O)N3CCN(CC(=O)Nc4ccc([N+](=O)[O-])c(C(F)(F)F)c4)CC3)OC3OC4(C)CCC1C32OO4 (centres unmarked)	MCF-10A	cell growth or viability	CCK-8				10.7 µM
CC(=O)N[C@H](C(=O)N[C@@H](CCCNC(=N)N)C(=O)N[C@@H](CCCCN)C(=O)N[C@@H](CCCNC(=N)N)C(=O)N[C@H](C(=O)N[C@@H](CC(C)C)C(=O)N[C@@H](CCCNC(=N)N)C(=O)N[C@]1(C)CCCCCCC=CCCC[C@@](C)(C(=O)N[C@H](C(=O)N[C@@H](CCC(=O)O)C(N)=O)C(C)C)NC(=O)[C@H](CCC(=O)O)NC(=O)[C@H](CCCNC(=N)N)NC(=O)[C@H](CCC(=O)O)NC(=O)[C@H](CCC(N)=O)NC(=O)[C@H](CC(C)C)NC(=O)[C@H](CC(C)C)NC1=O)[C@@H](C)O)C(C)C	SK-N-MC (no EGFR or ErbB2-4)	cell viability	ATP luminescence		18 h		> 100 µM
COc1ccc(C([O-])=CC(=O)c2ccc(C(C)(C)C)cc2)cc1.Cc1ccc(C(C)C)cc1.[Cl-].[Ru+2]	MIA PaCa-2	cytotoxicity				dark	~6.9 µM
CC(=O)N[C@H](C(=O)N[C@@H](CCCNC(=N)N)C(=O)N[C@@H](CCCCN)C(=O)N[C@@H](CCCNC(=N)N)C(=O)N[C@]1(C)CCCCCCC=CCCC[C@@](C)(C(=O)N[C@@H](CCCNC(=N)N)C(=O)N[C@@H](CCC(=O)O)C(=O)N[C@@H](CC(C)C)C(=O)N[C@H](C(=O)N[C@@H](CCC(=O)O)C(N)=O)C(C)C)NC(=O)[C@H](CCC(N)=O)NC(=O)[C@H](CC(C)C)NC(=O)[C@H](CC(C)C)NC(=O)[C@H](CCCNC(=N)N)NC(=O)[C@H](CCCNC(=N)N)NC(=O)[C@H](CC(C)C)NC1=O)C(C)C	H1975 (EGFR L858R/T790M)	cell viability	ATP luminescence		18 h		2.31 ± 0.51 µM
CCOc1ccc(Br)cc1/C=N/NC(=O)CCl	AMO1	cell viability					0.079 µM

Some of these lines once more:
Structure (SMILES)	cell line	observed	technique	medium	time	notes	IC50
O=C(Cc1ccc(Br)cc1)N1CCN(CC(OCc2ccc3ccccc3c2)c2ccc(Cl)cc2Cl)CC1 (centres unmarked)	MDA-MB-468	cell growth or viability	MTT		24 h		19.7 µM
CCC1=C(C)C2=C(c3ccc(C(=O)NCCNC(=O)c4ccc(P(=NC5=[O+][Ru-]([Cl])[n+]6ccccc65)(c5ccccc5)c5ccccc5)cc4)cc3)c3c(C)c(CC)c(C)n3[B-](F)(F)[N+]2=C1C.Cc1ccc(C(C)C)cc1.Cl	MCF-10A	cell growth or viability	MTT				73 µM
CC(=O)N[C@H](C(=O)N[C@@H](CCCNC(=N)N)C(=O)N[C@@H](CCCCN)C(=O)N[C@@H](CCCNC(=N)N)C(=O)N[C@H](C(=O)N[C@@]1(C)CCCC=CCCC[C@@](C)(C(=O)N[C@@H](CCC(N)=O)C(=O)N[C@@H](CCC(=O)O)C(=O)N[C@@H](CCCNC(=N)N)C(=O)N[C@@H](CCC(=O)O)C(=O)N[C@@H](CC(C)C)C(=O)N[C@H](C(=O)N[C@@H](CCC(=O)O)C(N)=O)C(C)C)NC(=O)[C@H](CC(C)C)NC(=O)[C@H](CCCNC(=N)N)NC(=O)[C@H](CCCNC(=N)N)NC1=O)[C@@H](C)O)C(C)C	H2030 (wild-type EGFR)	cell viability	ATP luminescence		18 h		> 50 µM
